{"data": "Measurements pooled from the literature", "note": "Every numbered part comes from another study and shows a few of its results, in no order.", "chain of UniProt O43283 (whole entry, looked up)": "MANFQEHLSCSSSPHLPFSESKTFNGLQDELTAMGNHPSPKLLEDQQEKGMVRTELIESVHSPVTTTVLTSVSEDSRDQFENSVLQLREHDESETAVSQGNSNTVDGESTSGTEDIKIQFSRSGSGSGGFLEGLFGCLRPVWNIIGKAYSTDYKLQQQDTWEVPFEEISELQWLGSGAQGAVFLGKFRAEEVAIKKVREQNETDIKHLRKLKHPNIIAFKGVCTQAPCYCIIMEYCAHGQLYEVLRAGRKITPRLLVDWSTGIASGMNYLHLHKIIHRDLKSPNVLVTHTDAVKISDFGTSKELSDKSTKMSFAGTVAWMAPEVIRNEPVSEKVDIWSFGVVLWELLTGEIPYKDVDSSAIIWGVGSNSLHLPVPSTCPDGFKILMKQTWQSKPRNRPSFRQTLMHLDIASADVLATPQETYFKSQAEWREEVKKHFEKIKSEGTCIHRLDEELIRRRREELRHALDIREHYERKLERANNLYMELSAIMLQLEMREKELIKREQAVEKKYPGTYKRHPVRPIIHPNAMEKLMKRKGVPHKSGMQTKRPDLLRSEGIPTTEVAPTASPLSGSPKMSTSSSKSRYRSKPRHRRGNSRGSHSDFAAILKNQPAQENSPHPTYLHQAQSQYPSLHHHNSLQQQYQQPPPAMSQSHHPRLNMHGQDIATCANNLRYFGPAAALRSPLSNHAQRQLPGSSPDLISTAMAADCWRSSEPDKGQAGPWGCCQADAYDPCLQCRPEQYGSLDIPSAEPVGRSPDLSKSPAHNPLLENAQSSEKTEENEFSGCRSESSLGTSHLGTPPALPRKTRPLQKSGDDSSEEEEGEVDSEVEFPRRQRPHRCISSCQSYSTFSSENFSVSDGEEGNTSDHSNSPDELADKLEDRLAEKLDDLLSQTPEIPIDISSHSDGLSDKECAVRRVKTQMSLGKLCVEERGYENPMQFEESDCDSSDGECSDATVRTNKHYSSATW", "chain of UniProt Q9H3Y6 (whole entry, looked up)": "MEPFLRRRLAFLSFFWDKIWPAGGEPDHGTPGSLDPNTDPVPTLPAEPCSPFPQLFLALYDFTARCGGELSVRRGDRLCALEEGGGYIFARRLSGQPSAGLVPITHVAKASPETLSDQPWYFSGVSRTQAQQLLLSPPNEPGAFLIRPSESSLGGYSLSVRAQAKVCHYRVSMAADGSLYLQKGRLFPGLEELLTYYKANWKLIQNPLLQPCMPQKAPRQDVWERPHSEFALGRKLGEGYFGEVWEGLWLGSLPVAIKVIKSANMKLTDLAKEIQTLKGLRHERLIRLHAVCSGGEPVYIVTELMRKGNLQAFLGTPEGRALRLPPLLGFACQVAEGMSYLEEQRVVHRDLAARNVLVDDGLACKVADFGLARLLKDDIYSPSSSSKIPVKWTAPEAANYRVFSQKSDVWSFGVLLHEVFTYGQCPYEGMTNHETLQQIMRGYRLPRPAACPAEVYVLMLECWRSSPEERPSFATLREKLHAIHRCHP", "chain of UniProt Q9BYP7 (whole entry, looked up)": "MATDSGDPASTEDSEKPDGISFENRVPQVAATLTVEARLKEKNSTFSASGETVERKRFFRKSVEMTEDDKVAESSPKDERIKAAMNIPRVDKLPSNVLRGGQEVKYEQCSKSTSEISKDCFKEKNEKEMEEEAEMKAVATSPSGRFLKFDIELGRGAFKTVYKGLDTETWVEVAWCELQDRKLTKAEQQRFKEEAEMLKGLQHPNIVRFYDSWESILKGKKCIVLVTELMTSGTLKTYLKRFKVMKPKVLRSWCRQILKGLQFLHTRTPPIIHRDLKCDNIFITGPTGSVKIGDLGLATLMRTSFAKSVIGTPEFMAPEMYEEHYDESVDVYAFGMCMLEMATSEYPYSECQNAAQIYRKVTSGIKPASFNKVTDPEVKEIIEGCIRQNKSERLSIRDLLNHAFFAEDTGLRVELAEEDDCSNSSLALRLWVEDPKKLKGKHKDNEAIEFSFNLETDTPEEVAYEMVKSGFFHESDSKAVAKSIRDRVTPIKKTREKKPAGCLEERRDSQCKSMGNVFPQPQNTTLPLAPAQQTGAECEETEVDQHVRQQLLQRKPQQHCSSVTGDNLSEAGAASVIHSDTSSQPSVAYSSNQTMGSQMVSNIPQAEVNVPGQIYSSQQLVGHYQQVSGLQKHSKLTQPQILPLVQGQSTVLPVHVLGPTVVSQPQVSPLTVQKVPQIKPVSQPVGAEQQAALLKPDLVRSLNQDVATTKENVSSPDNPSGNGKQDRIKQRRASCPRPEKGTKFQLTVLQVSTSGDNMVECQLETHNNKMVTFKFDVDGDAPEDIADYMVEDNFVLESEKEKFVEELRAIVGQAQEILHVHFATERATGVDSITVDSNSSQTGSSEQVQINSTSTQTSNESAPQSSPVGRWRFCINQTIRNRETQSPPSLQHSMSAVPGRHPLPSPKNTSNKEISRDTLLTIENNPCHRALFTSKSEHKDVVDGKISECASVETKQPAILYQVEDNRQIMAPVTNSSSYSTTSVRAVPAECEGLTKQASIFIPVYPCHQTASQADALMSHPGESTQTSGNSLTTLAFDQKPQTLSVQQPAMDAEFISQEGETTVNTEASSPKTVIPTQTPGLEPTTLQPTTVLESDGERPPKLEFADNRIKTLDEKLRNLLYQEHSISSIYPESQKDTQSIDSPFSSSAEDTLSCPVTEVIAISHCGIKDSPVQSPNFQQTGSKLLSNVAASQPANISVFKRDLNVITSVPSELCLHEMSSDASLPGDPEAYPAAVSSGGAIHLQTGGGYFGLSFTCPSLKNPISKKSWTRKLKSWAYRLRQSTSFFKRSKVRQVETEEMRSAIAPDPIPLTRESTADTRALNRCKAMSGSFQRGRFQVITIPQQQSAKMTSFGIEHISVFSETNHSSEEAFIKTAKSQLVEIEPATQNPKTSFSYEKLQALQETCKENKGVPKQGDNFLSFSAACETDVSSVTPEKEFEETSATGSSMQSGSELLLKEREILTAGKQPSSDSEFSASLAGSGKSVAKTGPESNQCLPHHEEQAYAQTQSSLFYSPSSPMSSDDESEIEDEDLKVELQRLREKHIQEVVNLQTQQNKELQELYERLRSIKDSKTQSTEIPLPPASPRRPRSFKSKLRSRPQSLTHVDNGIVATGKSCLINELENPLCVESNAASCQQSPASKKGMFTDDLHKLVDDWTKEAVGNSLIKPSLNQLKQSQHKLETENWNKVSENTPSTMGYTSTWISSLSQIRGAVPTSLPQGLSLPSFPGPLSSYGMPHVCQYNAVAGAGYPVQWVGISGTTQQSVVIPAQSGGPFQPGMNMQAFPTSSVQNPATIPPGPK", "chain of UniProt O94921 (whole entry, looked up)": "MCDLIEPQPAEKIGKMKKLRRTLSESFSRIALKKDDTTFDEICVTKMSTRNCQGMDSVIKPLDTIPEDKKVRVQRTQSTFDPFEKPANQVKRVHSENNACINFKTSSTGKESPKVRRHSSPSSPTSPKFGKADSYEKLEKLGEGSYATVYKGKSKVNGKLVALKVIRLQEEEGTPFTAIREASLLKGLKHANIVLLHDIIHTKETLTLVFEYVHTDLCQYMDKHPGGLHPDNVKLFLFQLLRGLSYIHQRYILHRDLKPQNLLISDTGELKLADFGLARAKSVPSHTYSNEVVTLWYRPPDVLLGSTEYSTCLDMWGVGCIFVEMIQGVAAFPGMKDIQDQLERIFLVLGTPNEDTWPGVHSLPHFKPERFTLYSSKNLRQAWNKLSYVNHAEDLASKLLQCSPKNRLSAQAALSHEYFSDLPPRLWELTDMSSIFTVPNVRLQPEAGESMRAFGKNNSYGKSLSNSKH", "chain of UniProt Q9H1R3 (whole entry, looked up)": "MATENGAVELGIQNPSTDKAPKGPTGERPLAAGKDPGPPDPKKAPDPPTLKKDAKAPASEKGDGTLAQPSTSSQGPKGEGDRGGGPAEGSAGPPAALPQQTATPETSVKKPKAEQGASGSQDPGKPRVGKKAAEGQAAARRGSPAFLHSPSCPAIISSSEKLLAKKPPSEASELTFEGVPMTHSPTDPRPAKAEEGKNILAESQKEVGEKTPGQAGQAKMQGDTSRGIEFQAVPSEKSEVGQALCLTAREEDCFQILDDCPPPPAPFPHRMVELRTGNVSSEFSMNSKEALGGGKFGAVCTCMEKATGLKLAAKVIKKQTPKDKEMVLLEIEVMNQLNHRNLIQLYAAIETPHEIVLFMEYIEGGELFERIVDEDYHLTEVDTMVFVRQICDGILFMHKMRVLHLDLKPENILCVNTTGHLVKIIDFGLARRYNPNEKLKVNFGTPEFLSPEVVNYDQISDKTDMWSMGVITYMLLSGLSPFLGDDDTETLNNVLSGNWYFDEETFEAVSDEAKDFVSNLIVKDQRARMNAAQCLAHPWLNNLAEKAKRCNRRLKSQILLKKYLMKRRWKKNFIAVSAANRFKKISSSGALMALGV", "chain of UniProt Q9UK32 (whole entry, looked up)": "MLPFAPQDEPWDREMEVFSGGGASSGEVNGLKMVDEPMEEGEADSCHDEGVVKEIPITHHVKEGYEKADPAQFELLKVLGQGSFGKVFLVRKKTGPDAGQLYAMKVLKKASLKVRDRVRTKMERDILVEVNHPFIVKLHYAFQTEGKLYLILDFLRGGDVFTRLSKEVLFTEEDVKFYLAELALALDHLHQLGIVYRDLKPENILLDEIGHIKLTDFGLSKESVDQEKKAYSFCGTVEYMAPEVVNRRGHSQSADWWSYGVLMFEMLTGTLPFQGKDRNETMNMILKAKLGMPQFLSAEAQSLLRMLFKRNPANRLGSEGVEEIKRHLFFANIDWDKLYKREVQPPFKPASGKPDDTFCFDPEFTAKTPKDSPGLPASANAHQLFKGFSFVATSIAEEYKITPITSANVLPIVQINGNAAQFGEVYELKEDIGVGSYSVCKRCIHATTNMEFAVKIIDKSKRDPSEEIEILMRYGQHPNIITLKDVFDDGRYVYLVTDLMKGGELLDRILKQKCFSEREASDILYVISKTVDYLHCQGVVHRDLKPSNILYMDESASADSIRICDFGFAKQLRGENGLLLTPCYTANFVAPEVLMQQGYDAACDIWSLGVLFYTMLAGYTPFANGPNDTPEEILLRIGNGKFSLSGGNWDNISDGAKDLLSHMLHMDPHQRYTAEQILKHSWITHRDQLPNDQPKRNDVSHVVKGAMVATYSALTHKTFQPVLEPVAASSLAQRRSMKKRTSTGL"}
{"data": "Set 1", "Structure (SMILES)": "Nc1[nH]nc2nnc(-c3c(-c4ccccc4)nn4ccccc34)cc12", "observed": "enzyme activity", "action": "inhibitor", "tested at": "0.5 µM", "relative to": "control"}
{"target": "Ribosomal protein S6 kinase alpha-6 (RPS6KA6, Homo sapiens, UniProt Q9UK32)", "remaining activity [%]": 95.5}
{"target": "Homeodomain-interacting protein kinase 4 (HIPK4, Homo sapiens, UniProt Q8NE63)", "remaining activity [%]": 105}
{"target": "Serine/threonine-protein kinase 17A (STK17A, Homo sapiens, UniProt Q9UEE5)", "remaining activity [%]": 99.9}
{"target": "Serine/threonine-protein kinase WNK3 (WNK3, Homo sapiens, UniProt Q9BYP7)", "remaining activity [%]": 101}
{"target": "Tyrosine-protein kinase ABL1 (ABL1, Homo sapiens, UniProt P00519)", "remaining activity [%]": 83.3}
{"target": "Cyclin-dependent kinase 6, with cyclin D3 (CDK6, Homo sapiens, UniProt Q00534)", "remaining activity [%]": 90.4}
{"target": "Phosphorylase b kinase gamma catalytic chain, skeletal muscle/heart isoform (PHKG1, Homo sapiens, UniProt Q16816)", "remaining activity [%]": 101}
{"target": "3-phosphoinositide-dependent protein kinase 1 (PDPK1, Homo sapiens, UniProt O15530)", "remaining activity [%]": 104}
{"target": "Ephrin type-B receptor 1 (EPHB1, Homo sapiens, UniProt P54762)", "remaining activity [%]": 98.6}
{"target": "Mitogen-activated protein kinase kinase kinase kinase 4 (MAP4K4, Homo sapiens, UniProt O95819)", "remaining activity [%]": 62}
{"target": "Ephrin type-A receptor 4 (EPHA4, Homo sapiens, UniProt P54764)", "remaining activity [%]": 85.9}
{"target": "MAP kinase-activated protein kinase 3 (MAPKAPK3, Homo sapiens, UniProt Q16644)", "remaining activity [%]": 103}
{"target": "Ribosomal protein S6 kinase alpha-5 (RPS6KA5, Homo sapiens, UniProt O75582)", "remaining activity [%]": 101}
{"target": "Cyclin-dependent kinase 4, with cyclin D3 (CDK4, Homo sapiens, UniProt P11802)", "remaining activity [%]": 100}
{"target": "Tyrosine-protein kinase Srms (SRMS, Homo sapiens, UniProt Q9H3Y6)", "remaining activity [%]": 93}
{"target": "Cyclin-dependent kinase 1, with cyclin B (CDK1, Homo sapiens, UniProt P06493)", "remaining activity [%]": 90.2}
{"target": "Serine/threonine-protein kinase 16 (STK16, Homo sapiens, UniProt O75716)", "remaining activity [%]": 108}
{"data": "Set 2", "cell line": "mouse MPNST tumor cells", "method": "high-content immunofluorescence imaging", "refers to": "nuclear SOX9", "tested at": "10 µM", "time": "12 h", "notes": "mean of 2 replicates", "relative to": "DMSO control", "direction": "higher = more nuclear SOX9"}
{"SMILES": "CC(C)Oc1ccc2c(=O)c(-c3ccccc3)coc2c1", "nuclear SOX9 intensity": "105 % of DMSO"}
{"SMILES": "N#Cc1cnc2cnc(NCc3cccnc3)cc2c1Nc1ccc(F)c(Cl)c1", "nuclear SOX9 intensity": "83.2 % of DMSO"}
{"SMILES": "CCCC[C@@H](C=O)NC(=O)[C@H](CC(C)C)NC(=O)OCc1ccccc1", "nuclear SOX9 intensity": "98.2 % of DMSO"}
{"SMILES": "O=C(CCCCCCCn1cc(-c2cccnc2)nn1)Nc1ccccc1-c1ccccc1", "nuclear SOX9 intensity": "122 % of DMSO"}
{"SMILES": "CN(C)CCn1cc(S(=O)(=O)c2cccc(F)c2)c2cccnc21", "nuclear SOX9 intensity": "104 % of DMSO"}
{"data": "Set 3", "Compound": "Cc1c[nH]c2nccc(Oc3c(F)cc(Nc4cc(Cl)nc(N)n4)cc3F)c12", "tested at": "0.1 µM"}
{"target": "Myosin-IIIb (MYO3B, Homo sapiens, UniProt Q8WXR4)", "assay": "binding, competition with immobilised ligand", "remaining binding [%]": 91}
{"target": "Ribosomal protein S6 kinase alpha-4, N-terminal kinase domain (RPS6KA4, Homo sapiens, UniProt O75676)", "assay": "cell-free assay, competition with immobilised ligand", "remaining binding [%]": 100}
{"target": "cAMP-dependent protein kinase catalytic subunit PRKX (PRKX, Homo sapiens, UniProt P51817)", "assay": "cell-free assay, competition with immobilised ligand", "remaining binding [%]": 77}
{"target": "Mitogen-activated protein kinase kinase kinase 13 (MAP3K13, Homo sapiens, UniProt O43283)", "assay": "cell-free assay, competition with immobilised ligand", "remaining binding [%]": 81}
{"target": "Serine/threonine-protein kinase WNK4 (WNK4, Homo sapiens, UniProt Q96J92)", "assay": "cell-free assay, competition with immobilised ligand", "remaining binding [%]": 100}
{"target": "Receptor-type tyrosine-protein kinase FLT3 (FLT3, Homo sapiens, UniProt P36888, D835V)", "assay": "cell-free assay, competition with immobilised ligand", "remaining binding [%]": 90}
{"target": "Serine/threonine-protein kinase pim-3 (PIM3, Homo sapiens, UniProt Q86V86)", "assay": "cell-free assay, competition with immobilised ligand", "remaining binding [%]": 100}
{"target": "Myosin light chain kinase 2, skeletal/cardiac muscle (MYLK2, Homo sapiens, UniProt Q9H1R3)", "assay": "cell-free assay, competition with immobilised ligand", "remaining binding [%]": 98}
{"target": "Serine/threonine-protein kinase SIK1 (SIK1, Homo sapiens, UniProt P57059)", "assay": "competition binding", "remaining binding [%]": 98}
{"target": "Cyclin-dependent kinase 14 (CDK14, Homo sapiens, UniProt O94921)", "assay": "cell-free assay, competition with immobilised ligand", "remaining binding [%]": 100}
{"target": "Mitogen-activated protein kinase kinase kinase 1 (MAP3K1, Homo sapiens, UniProt Q13233)", "assay": "cell-free assay, competition with immobilised ligand", "remaining binding [%]": 82}
{"target": "ALK tyrosine kinase receptor (ALK, Homo sapiens, UniProt Q9UM73, C1156Y)", "assay": "cell-free assay, competition with immobilised ligand", "remaining binding [%]": 100}
{"target": "Wee1-like protein kinase 2 (WEE2, Homo sapiens, UniProt P0C1S8)", "assay": "cell-free assay, competition with immobilised ligand", "remaining binding [%]": 91}
{"target": "Mast/stem cell growth factor receptor Kit (KIT, Homo sapiens, UniProt P10721, T670I/V559D)", "assay": "cell-free assay, competition with immobilised ligand", "remaining binding [%]": 83}
{"data": "Further values, each from its own experiment"}
{"SMILES": "C[C@@H]1OCC2(CCN(c3cnc(Sc4ccnc(N)c4Cl)c(N)n3)CC2)[C@@H]1N", "assay": "immunoblot, refers to: phospho-ERK", "system": "Ba/F3 KRAS Q61R, Mus musculus", "setting": "0.1 µM", "how to read": "relative to: DMSO", "quantity": "ERK phosphorylation", "value": "111%"}
{"note": "Some of these lines once more (set 2):"}
{"SMILES": "CN(C)CCn1cc(S(=O)(=O)c2cccc(F)c2)c2cccnc21", "nuclear SOX9 intensity": "104 % of DMSO"}
{"SMILES": "CCCC[C@@H](C=O)NC(=O)[C@H](CC(C)C)NC(=O)OCc1ccccc1", "nuclear SOX9 intensity": "98.2 % of DMSO"}
{"SMILES": "N#Cc1cnc2cnc(NCc3cccnc3)cc2c1Nc1ccc(F)c(Cl)c1", "nuclear SOX9 intensity": "83.2 % of DMSO"}
